{"data": "Measured values pooled from the literature", "note": "Each numbered part is a random draw from the data of one study; scales do not carry over between parts."}
{"data": "Study 1", "target": "Ras GTPase-activating protein-binding protein 1, C-terminal RGG region (G3BP1, Homo sapiens, UniProt Q13283)", "method": "RNA Bind-n-Seq", "molecule type": "RNA", "sample": "in vitro", "concentration": "1 µM", "setting": "whole 134-nt RNA, ends assumed", "with": "150 mM KCl", "reference": "input library", "reading": "higher = stronger binding", "shared flanks, not repeated": "GGGAGUUCUACAGUCCGACGAUC … UGGAAUUCUCGGGUGUCAAGG", "sequence of UniProt Q13283 (whole entry, looked up)": "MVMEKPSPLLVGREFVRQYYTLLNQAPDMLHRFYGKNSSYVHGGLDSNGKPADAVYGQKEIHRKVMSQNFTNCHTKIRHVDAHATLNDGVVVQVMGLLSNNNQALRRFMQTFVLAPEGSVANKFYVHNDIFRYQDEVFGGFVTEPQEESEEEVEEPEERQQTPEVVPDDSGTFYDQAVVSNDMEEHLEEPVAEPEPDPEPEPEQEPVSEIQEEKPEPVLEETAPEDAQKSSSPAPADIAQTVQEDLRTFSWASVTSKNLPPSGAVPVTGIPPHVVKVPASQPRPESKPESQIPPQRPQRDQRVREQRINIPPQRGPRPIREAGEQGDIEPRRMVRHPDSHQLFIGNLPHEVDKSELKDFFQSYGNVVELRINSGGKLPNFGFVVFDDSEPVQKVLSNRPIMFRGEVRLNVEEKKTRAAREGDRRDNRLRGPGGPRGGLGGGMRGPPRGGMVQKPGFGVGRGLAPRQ"}
{"Strand": "UCCUCAAGUCCUGUGCUACACAUCGUAUGUACCGAAUCGGCGGGGCGGCGGAAAGUAUUAUGUUACGCCGUUCGGAUCUGCACUUCCAGC", "log2 enrichment": -0.794}
{"Strand": "CACAGACAACACGCACCCACACAGACACAGAGGGAAGGGGUUGGGAUGGGGACAGGGUGCACAGCAGGGCGGGGUAAGACCCCAGCCCCU", "log2 enrichment": -0.924}
{"Strand": "UGGCCCUGGUGGCAUGCGGGGAGGAAGAGGUGGCCUCAUGGAACGUGGUGGUCCCGGUGGAAUGUUCAGAGGUGGCCGUGGUGGAGACAG", "log2 enrichment": 2.27}
{"Strand": "UUCCGCCUCUUUCCGGAGUACAAGAACAACAAACUUUUCCUGACCGGGGAGAGCUAUGCUGGCAUCUACAUCCCCACCCUGGCCGUGCUG", "log2 enrichment": 0.0901}
{"Strand": "CUCAAGUCCUGUGCUACACAUCGUAUGUACCGAAUCGGGUUGGGUUGGGUUGGAAAGUAUUAUGUUACGCCGUUCGGAUCUGCACUUCCA", "log2 enrichment": 0.0305}
{"Strand": "UAACUUUAGAGGAGGAUCUGAUGGAUAUGGCAGUGGACGUGGAUUUGGGGAUGGCUGUAAUGGGUAUGGAGGAGGACCUGGAGGUGGCAA", "log2 enrichment": -1.1}
{"Strand": "UGGGCGGCUGCGAGAUGAGAACGGACGACCCUACUCGCCCAGUCAGUAUGCGCUCCAGUACGCCGGGGACGGCAGUGUCCUCCUCAUCCC", "log2 enrichment": -0.231}
{"Strand": "CACAGACAACACGCACCUACACAGACACAGAGGGAAGGGGUUGGGAUGGGGACAGGGUGCACAGCAGGGCGGGGUAGGACCCCAGCCCCU", "log2 enrichment": -0.156}
{"Strand": "AAGUCCUGUGCUACACAUCGUAUGUACCGAAUCGGUUUUUGGUUUUUUUGGAAAGGAAAGUAUUAUGUUACGCCGUUCGGAUCUGCACUU", "log2 enrichment": -2.05}
{"data": "Study 2", "target": "Interferon regulatory factor 5, full length, phosphomimetic (IRF5, Homo sapiens, UniProt Q13568-2, residues 1-514, K96S/S451D/S453D/S456D/S462D)", "method": "protein-binding microarray", "molecule type": "double-stranded DNA, one strand shown", "sample": "in vitro", "concentration": "250 nM", "setting": "60-bp whole probe", "with": "salmon DNA 0.4 mg/ml", "reference": "random background probes", "reading": "higher = stronger binding", "shared flanks, not repeated": "GCCTAGCAC … GTCTTGATTCGCTTGACGCTGCTG"}
{"Strand": "TTCGGACTGGGTTTCGGTTAGTGCTAG", "log fluorescence": "8.04 z-score"}
{"Strand": "TCACCATCCTGTATGGAACTGTGCTAG", "log fluorescence": "0.0158 z-score"}
{"Strand": "GACGGACTGGGGTTTCGGGAAGTGCTA", "log fluorescence": "1.28 z-score"}
{"Strand": "GACGATTTCAGACTGTAGACGTGCTAG", "log fluorescence": "0.429 z-score"}
{"Strand": "TTAGGTCTCAGTTTCGATTAGTGCTAG", "log fluorescence": "8.9 z-score"}
{"Strand": "TCACCTTGCTTTATGTGACTGTGCTAG", "log fluorescence": "0.195 z-score"}
{"Strand": "GTCGGTTTCGACTATCGGGACGTGCTA", "log fluorescence": "7.98 z-score"}
{"Strand": "GACGGACTGGCGTATCGGGACGTGCTA", "log fluorescence": "-0.0479 z-score"}
{"Strand": "TCTTTTCTGTTGTCTGTGTTTGTGCTA", "log fluorescence": "3.14 z-score"}
{"Strand": "GACGATCTCAGACTGAAGACGTGCTAG", "log fluorescence": "-0.148 z-score"}
{"Strand": "TACGGACTGGGGACTGGGGACGTGCTA", "log fluorescence": "-0.648 z-score"}
{"Strand": "TTAGAAGTGAGTATCGATTAGTGCTAG", "log fluorescence": "6.9 z-score"}
{"Strand": "TTAGATCTCAGTTTCGATCAGTGCTAG", "log fluorescence": "9.38 z-score"}
{"Strand": "GACGGTATCCTACTGCTGATGTGCTAG", "log fluorescence": "-0.157 z-score"}
{"Strand": "GACGATTTCACTATCGAGACGTGCTAG", "log fluorescence": "5.36 z-score"}
{"Strand": "GACGGACTGGGTCACGGGACGTGCTAG", "log fluorescence": "-0.447 z-score"}
{"Strand": "TTAGATTTCAGACTGTATTAGTGCTAG", "log fluorescence": "0.618 z-score"}
{"Strand": "TTAGGTATCGGGTTTCGGTAAGTGCTA", "log fluorescence": "7.49 z-score"}
{"Strand": "TTATATCTGTGTTATTAAATTGTGCTA", "log fluorescence": "2.04 z-score"}
{"data": "Study 3", "target": "RING finger protein unkempt homolog, zinc fingers 1-6, SBP tag (UNK, Homo sapiens, UniProt Q9C0B0, residues 30-357)", "method": "RNA Bind-n-Seq", "molecule type": "RNA", "sample": "in vitro", "concentration": "100 nM", "setting": "RNA with constant flanks, vertebrate orthologous sites, ends assumed", "reference": "input RNA pool", "reading": "higher = stronger binding", "shared flanks, not repeated": "GGGAGUUCUACAGUCCGACGAUC … CAACAGAGGAUUGAGCAUCA", "sequence of UniProt Q9C0B0 (30-357, looked up)": "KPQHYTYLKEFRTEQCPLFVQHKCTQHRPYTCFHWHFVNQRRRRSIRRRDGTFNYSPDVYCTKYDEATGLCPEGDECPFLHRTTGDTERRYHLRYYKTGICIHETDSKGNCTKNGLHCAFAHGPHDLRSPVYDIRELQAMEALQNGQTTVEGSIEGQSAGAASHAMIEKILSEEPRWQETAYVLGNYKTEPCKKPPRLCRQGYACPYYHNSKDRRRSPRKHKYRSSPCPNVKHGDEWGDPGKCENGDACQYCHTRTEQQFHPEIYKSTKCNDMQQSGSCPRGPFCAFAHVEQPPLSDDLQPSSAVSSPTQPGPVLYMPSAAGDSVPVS"}
{"Strand": "GUCUCUUCUCCCUUAUCCUGAUUUUAAAAGCCCUUCUUUCUUUCUUUUUUUUUUUUUUAGGCAUAUGUAGUAAUAAUAGCAGAAAGAUUUAAUUUGGGCAACUUUGAUUCUUCAAAGAGA", "bound/input enrichment [ratio]": 3.62}
{"Strand": "GCUUUAACCAAUUAUGUCUGUAAAUGUAUAUUGAGAGAAUUGAAGUAUUUAUAAACAGAGUGAUUUAUUUAAGGAAAAGCUCAUUCCUCUUUCAUAUGGUGGUCUAUGUUAAUUCCAUGU", "bound/input enrichment [ratio]": 1.06}
{"Strand": "AUUUAAAAUUCCAGUAGUUAUAUUUAAUGAUCUCACCCCUGAGUUUCUUUUUCAUUAAAGUAGCUUUCAUUUCUAUUAUUCCAAUUUACUGAUAUGAACAAAUAGAAGGUCCGUGUGAGC", "bound/input enrichment [ratio]": 0.605}
{"Strand": "CAUCUCUCAUUUUAUAUGUCCAAAAAUGGCUUUGAAUUUUAAGCAAUUACUAGUUUUAAUUAGCUCUGCCCUCAUGAAGUAUUAUUAUAAUUCACUUUAAACAGAUAUCUGUCUGAAUUA", "bound/input enrichment [ratio]": 1.77}
{"Strand": "CCCUCUGAACCCCAUAUCUUCUGUUUCAUAGUGCAGAAGUAAUAUUUUCAAUUGUAAUAUUAGUGGACUUGUUUAAUUUUAGAGAAACUUUCAGUACAGAUACUGUGAGCUUACAUGGAA", "bound/input enrichment [ratio]": 2.17}
{"Strand": "UACCUUUUGUAGGCCAAAACCCUCCUUCUACUGCUUCUGCCAACUGGAAGCACAGAAAACUAGAAUUUCAUUUAUUUUGUUUAAAAAAAAAAAAAAAAAAUUGAUUUCUUGUAACAUUCA", "bound/input enrichment [ratio]": 0.499}
{"Strand": "AGCUUCUGGCGACAUUUGGCCUGGCCUUUCAGCAUAUGAUAACAGUCCAAGGUCACCCCAUAGUCCUUCAAUUGCCACCCCACCUAGUCAGAGUUCAUCUUGCUCUGAUGCCCCUUUGCU", "bound/input enrichment [ratio]": 0.747}
{"Strand": "AUCAGUAGAAUUACAUAAUACUAAAGUUGCAGUUGAAAGGAUAUUCAAGUUAUGUGUUGGUAGUUACUAAAAGAAAUAGCUGUUAUUGCCUUGUAUUUAUAGCCCUUGUUUCAGGUUUCA", "bound/input enrichment [ratio]": 0.763}
{"data": "Study 4", "target": "Histone acetyltransferase KAT6A, winged helix 1, GST fusion (KAT6A, Homo sapiens, UniProt Q92794, residues 1-85)", "method": "protein binding microarray", "molecule type": "double-stranded DNA, one strand shown", "sample": "in vitro", "concentration": "not given", "setting": "8-mer, flanks averaged, mean of 2 arrays, mostly near background", "reference": "not given", "reading": "higher = stronger binding", "Target sequence (chain)": "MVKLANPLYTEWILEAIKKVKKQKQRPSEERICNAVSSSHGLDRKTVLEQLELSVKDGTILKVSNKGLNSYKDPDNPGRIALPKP"}
{"Strand": "ACGAATCT", "E-score": -0.187}
{"Strand": "CCCGCGAA", "E-score": 0.277}
{"Strand": "ACGAATAC", "E-score": -0.296}
{"Strand": "ATGGCTGA", "E-score": -0.204}
{"Strand": "AGCGGGTA", "E-score": 0.263}
{"Strand": "ATAGCTGG", "E-score": -0.122}
{"Strand": "GCTCAACC", "E-score": -0.103}
{"Strand": "GGATTCAC", "E-score": -0.0846}
{"Strand": "ATTCCAGC", "E-score": -0.218}
{"Strand": "GCGGCGGA", "E-score": 0.446}
{"Strand": "CGTTCGAA", "E-score": -0.112}
{"Strand": "AGGTAAGC", "E-score": -0.0152}
{"Strand": "AGAATGAC", "E-score": -0.125}
{"Strand": "ACAGACGC", "E-score": 0.13}
{"Strand": "AGCTTGCA", "E-score": -0.141}
{"Strand": "CCCTAGAG", "E-score": -0.11}
{"Strand": "CTGCCCAG", "E-score": -0.256}
{"Strand": "CCATCGCC", "E-score": 0.122}
{"note": "Some of these lines once more (study 3):"}
{"Strand": "GCUUUAACCAAUUAUGUCUGUAAAUGUAUAUUGAGAGAAUUGAAGUAUUUAUAAACAGAGUGAUUUAUUUAAGGAAAAGCUCAUUCCUCUUUCAUAUGGUGGUCUAUGUUAAUUCCAUGU", "bound/input enrichment [ratio]": 1.06}
{"Strand": "GUCUCUUCUCCCUUAUCCUGAUUUUAAAAGCCCUUCUUUCUUUCUUUUUUUUUUUUUUAGGCAUAUGUAGUAAUAAUAGCAGAAAGAUUUAAUUUGGGCAACUUUGAUUCUUCAAAGAGA", "bound/input enrichment [ratio]": 3.62}
{"Strand": "CCCUCUGAACCCCAUAUCUUCUGUUUCAUAGUGCAGAAGUAAUAUUUUCAAUUGUAAUAUUAGUGGACUUGUUUAAUUUUAGAGAAACUUUCAGUACAGAUACUGUGAGCUUACAUGGAA", "bound/input enrichment [ratio]": 2.17}
{"Strand": "AUUUAAAAUUCCAGUAGUUAUAUUUAAUGAUCUCACCCCUGAGUUUCUUUUUCAUUAAAGUAGCUUUCAUUUCUAUUAUUCCAAUUUACUGAUAUGAACAAAUAGAAGGUCCGUGUGAGC", "bound/input enrichment [ratio]": 0.605}
{"Strand": "AUCAGUAGAAUUACAUAAUACUAAAGUUGCAGUUGAAAGGAUAUUCAAGUUAUGUGUUGGUAGUUACUAAAAGAAAUAGCUGUUAUUGCCUUGUAUUUAUAGCCCUUGUUUCAGGUUUCA", "bound/input enrichment [ratio]": 0.763}
{"Strand": "CAUCUCUCAUUUUAUAUGUCCAAAAAUGGCUUUGAAUUUUAAGCAAUUACUAGUUUUAAUUAGCUCUGCCCUCAUGAAGUAUUAUUAUAAUUCACUUUAAACAGAUAUCUGUCUGAAUUA", "bound/input enrichment [ratio]": 1.77}
{"Strand": "UACCUUUUGUAGGCCAAAACCCUCCUUCUACUGCUUCUGCCAACUGGAAGCACAGAAAACUAGAAUUUCAUUUAUUUUGUUUAAAAAAAAAAAAAAAAAAUUGAUUUCUUGUAACAUUCA", "bound/input enrichment [ratio]": 0.499}
{"Strand": "AGCUUCUGGCGACAUUUGGCCUGGCCUUUCAGCAUAUGAUAACAGUCCAAGGUCACCCCAUAGUCCUUCAAUUGCCACCCCACCUAGUCAGAGUUCAUCUUGCUCUGAUGCCCCUUUGCU", "bound/input enrichment [ratio]": 0.747}
